# Measurements from different studies.
# Parts stem from different laboratories: compare values within a part only. Substitutions count along the parent as printed.

# Sample 1 — technique: protein-binding microarray; form: double-stranded DNA, one strand shown; matrix: in vitro; concentration: 250 nM; setting: 60-bp whole probe; added: salmon DNA 0.4 mg/ml; relative to: random background probes; direction: higher = stronger binding; all sequences stand within: GCCTAGCAC … GTCTTGATTCGCTTGACGCTGCTG
# Target: Interferon regulatory factor 7, full length, phosphomimetic (IRF7, Homo sapiens, UniProt Q92985, residues 1-503, S101K/S471D/S472D/S475D/S476D/S477D/S483D/S484D/S487D)
# Target sequence (chain): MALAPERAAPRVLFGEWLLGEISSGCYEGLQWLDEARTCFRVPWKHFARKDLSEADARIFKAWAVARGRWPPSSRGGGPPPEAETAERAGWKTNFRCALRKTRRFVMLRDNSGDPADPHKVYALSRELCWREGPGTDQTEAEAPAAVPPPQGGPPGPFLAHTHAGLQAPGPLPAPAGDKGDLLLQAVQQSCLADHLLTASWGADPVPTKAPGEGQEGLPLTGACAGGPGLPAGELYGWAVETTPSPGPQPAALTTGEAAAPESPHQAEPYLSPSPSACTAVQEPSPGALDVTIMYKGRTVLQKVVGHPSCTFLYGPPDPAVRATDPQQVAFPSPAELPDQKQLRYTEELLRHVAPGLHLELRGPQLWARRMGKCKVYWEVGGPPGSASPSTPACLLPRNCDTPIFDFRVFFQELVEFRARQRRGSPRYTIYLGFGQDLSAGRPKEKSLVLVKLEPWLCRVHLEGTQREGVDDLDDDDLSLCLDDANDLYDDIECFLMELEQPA
Strand,log fluorescence [z-score]
GAGGTTTTCTAATGTTTTTTAGTGCTA,0.401
GACGGTTTCGGGTATGGGGACGTGCTA,6.34
GACGATATCGGGACTGTAGACGTGCTA,-0.326
GAATGTAACTCCTATCCAAGTGTGCTA,-0.011
CTAGAACTGGGGTTTCGATTAGTGCTA,5.95
TCATACCTCATCTTTCCCACTGTGCTA,1.1
GACGGTATCGGGACTCGGGACGTGCTA,0.0912
TCATTTTGAGTTTTCCTACTGTGCTAG,1.53
TTAGGACTGGACACCGGGTTAGTGCTA,-0.469
TCAACTCTGAACCTTCAGACTGTGCTA,-0.439
GACGATATCAGTACCGAGACGTGCTAG,0.0777
GACGGCTTCGACTTTCGGGACGTGCTA,0.0546
TTAGGTATCCATCTCCTTTAGTGCTAG,0.0746
TTAGGTCACGGACTGGGTTAGTGCTAG,0.0373
GTGGCTCACACCTGTCATCCCGTGCTA,-0.452
GGCGGACTGGGGTTTCGGGACGTGCTA,0.635
TCATCATTATTGTCTCCCACTGTGCTA,0.312
GACGGTTTCGACTTGCGGGACGTGCTA,12.8
TATTGTTTCCTTCCTCTTTTGTGCTAG,2.63
ACAAGTTTTTATTTTCTGAAGTGCTAG,1.32

# Sample 2 — technique: RNA Bind-n-Seq; form: RNA; matrix: in vitro; concentration: 365 nM; relative to: no-protein control; direction: higher = stronger binding
# Target: RNA binding protein fox-1 homolog 2, RRM domain, GST-SBP tag (RBFOX2, Homo sapiens, UniProt O43251-10, residues 100-194)
# Setting: natural RNA segment, single round, ends assumed
# Construct (chain): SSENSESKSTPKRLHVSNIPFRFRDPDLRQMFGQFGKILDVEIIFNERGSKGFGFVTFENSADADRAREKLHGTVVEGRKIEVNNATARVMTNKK
Strand,RBNS enrichment (R)
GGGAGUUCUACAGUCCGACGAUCAAUGUUAUCUUGUGAAAGGUGUUGCUGUUUGAAUUGAUGAGAAAUGGAAGAUGAGAACUCCCUAAGAGUUCUCAUAAUAAAUCAUCUCAUCACAAAUCAAUACGGUAUACUGGAAUUCUCGGGUGCCAA,0.249
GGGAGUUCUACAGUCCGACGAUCGAUGCUUCACCUGGCAUCUAGCCACUGCCUCCCACUUCUAGCAGAACUGGGUCAGCAGCCCUGUUCUUGCUUCCUCUCUCUUAAGCUAGGCCAGGCUGGCUCCUGGCUGUUGGAAUUCUCGGGUGCCAA,0.382
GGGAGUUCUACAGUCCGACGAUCAGCAGAUGAGACCAGCUCUUGCUUGGUUGGAAGCCACACUGCAGUUUGCAGUUUAGCCUUUGGUGUCUCAGUGGCUUCUUGCUUAUUCCAUGCUUUUUCUAUCCCAUCCUUGGAAUUCUCGGGUGCCAA,0.205
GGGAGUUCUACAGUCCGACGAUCGUAAAGAAUUGGUGUAGUCAUGACUUUAGCUGAUACUCUUAUGUACGAGAUCUGUCUCUGCUGUUUAACUUCAUUGGAUUAAUCAGCUGGUUUCAACUCUACUGCGAAACUGGAAUUCUCGGGUGCCAA,0.324
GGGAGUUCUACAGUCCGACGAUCCUAAGUAGCUCUUCCCGCUGUGUCCGUGUGCACACUGUAGCCCCACAGCCCCGUAGAACCUGCAGUGUCCUGACUAAAGCUGCCGACUUGCUCUCAUUUGCAGUUUCUGUUGGAAUUCUCGGGUGCCAA,0.763
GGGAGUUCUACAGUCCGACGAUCAUUCUGGAAUAGAGAGUAUUUUAAAUUGAAAUGACCAAAUUCGAUUUAAAACAAACACAUAACAAUCUUCAGUAAAGUUAUUUGAACCUGUGGUUGACAAUUCUGUAUUGUGGAAUUCUCGGGUGCCAA,0.353
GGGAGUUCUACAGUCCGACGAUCUUACUAUAUAGUUGAAGAUGGCCUUGACCUCCUGACCCCUGCCUCAGCCAUGCCUGGCUAGGACAGCCAAAUUGUUGUUGUUUCAAGUCUGGUUUCAUUUGCUUCCCUGCUGGAAUUCUCGGGUGCCAA,0.557
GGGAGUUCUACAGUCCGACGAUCCUGGUCCUAGUCACUGGCCGAGGAUAAGCCCGUCCCUGUCCCACAUUCUAGCCCCACUAUGCGGGGGUGCUGUUGUCCUGCCUGUGUCUCAUCCCCAGCUGCCUAAGCUAUGGAAUUCUCGGGUGCCAA,0.788
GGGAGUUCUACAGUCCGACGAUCAAAUCUCUGAGGUAUCAAAGAAUUUCUCCAUGAAGCCAGAUAAGUAUUCAAGAAUGCAUGGACCAGUAUAGGUUCGCUCUUGUUUCUACACCUCCAGAAUGAUAGCUGACUGGAAUUCUCGGGUGCCAA,0.661
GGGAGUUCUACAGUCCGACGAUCCGUUCCCGGGAAACGACCAAACGAACCGAACACAUAUAAACAAGGCACAGAGAAGUGGCCACAGCCUUCCCACCCCACGACCAGAGACUGGCCUGGCCUCACUGCUUUCAUGGAAUUCUCGGGUGCCAA,0.651
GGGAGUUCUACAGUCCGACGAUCACACAAGCUAAUCUGUACCUUUAUAUAUAUGUGUGUGUACAUAUAUACAUGUAUAAACUGUAUAGUGUACAUGUUAAUGAUUUAUCAGUAUGCCCCGAAUUCCUAGUGCAUGGAAUUCUCGGGUGCCAA,3.92
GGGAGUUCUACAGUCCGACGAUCCCCCAUCCACACCAUUCUCCAUUCGAGAGACUACCCCUGUUUCAGAGCCAGUCCCCACCUAGUCCCGUCCCUGCCACCUACACCCAAGGUCUUCAGCUUUAAGUUGCUGGUGGAAUUCUCGGGUGCCAA,0.735

# Sample 3 — target: UBE2L6 UBC core domain (UniProt O14933); technique: yeast two-hybrid; matrix: yeast; setting: mostly zero background; relative to: not given; direction: higher = stronger interaction
# B1: PHF7 RING domain (UniProt Q9BWX1); chain IQHGHVGEESCILCCEDLSQQSVENIQSPCCSQAIYHRKCIQKYAHTSAKHFFKCPQCNNRKEFPQEML
# B2: RNF5 RING domain (UniProt Q99942); chain ERGGAGATFECNICLETAREAVVSVCGHLYCWPCLHQWLETRPERQECPVCKAGISREKVVP
# B3: TRIM35 RING domain (UniProt Q9UPQ4); chain PSRSFKEELLCAVCYDPFRDAVTLRCGHNFCRGCVSRCWEVQVSPTCPVCKDRASPADLRT
# B4: TRIM10 RING domain (UniProt Q9UDY6); chain SVTSLADEVNCPICQGTLREPVTIDCGHNFCRACLTRYCEIPGPDLEESPTCPLCKEPFRPGSFRP
# B5: TRIM3 RING domain (UniProt O75382); chain VQPMDKQFLVCSICLDRYQCPKVLPCLHTFCERCLQNYIPAQSLTLSCPVCRQTSILPEQGV
# B6: RNF14 RING domain (UniProt Q9UBS8); chain IKCFNSKLFLCSICFCEKLGSECMYFLECRHVYCKACLKDYFEIQIRDGQVQCLNCPEPKCPSVATPGQVK
# B7: MSL2 RING domain (UniProt Q9HCI7); chain LLPYFRQSLSCCVCGHLLQDPIAPTNSTCQHYVCKTCKGKKMMMKPSCSWCKDYEQFEENKQ
# B8: RNF150 RING domain (UniProt Q9ULK6); chain DKETESDFDNCAVCIEGYKPNDVVRILPCRHLFHKSCVDPWLLDHRTCPMCKMNILKALGIP
# B9: RNF149 RING domain (UniProt Q8NC42); chain EKGIDVDAENCAVCIENFKVKDIIRILPCKHIFHRICIDPWLLDHRTCPMCKLDVIKALGYW
# B10: PEX2 RING domain (UniProt P28328); chain DNTLATSGKECALCGEWPTMPHTIGCEHIFCYFCAKSSFLFDVYFTCPKCGTEVHSLQPLK
# B11: TRIM52 RING domain (UniProt Q96A61); chain PMQTLQEEAVCAICLDYFKDPVSISCGHNFCRGCVTQLWSKEDEEDQNEEEDEWEEEEDEEAV
# B12: RNF43 RING domain (UniProt Q68DV7); chain SGSSCSSAPVCAICLEEFSEGQELRVISCLHEFHRNCVDPWLHQHRTCPLCMFNITEGDSFS
# Residues (chain): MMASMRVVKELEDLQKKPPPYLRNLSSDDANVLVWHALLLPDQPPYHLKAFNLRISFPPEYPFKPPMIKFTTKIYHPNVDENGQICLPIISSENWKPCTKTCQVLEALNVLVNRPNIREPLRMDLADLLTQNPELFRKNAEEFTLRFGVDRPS
Sequence,lacZ reporter activity
B1 (PHF7 RING domain),0
B2 (RNF5 RING domain),0
B3 (TRIM35 RING domain),0
QLQDEEDDSLCRICMDAVIDCVLLECGHMVTCTKCGKRMSECPICRQYVVRAVHVF (RNF34 RING domain (UniProt Q969K3)),0
B4 (TRIM10 RING domain),0
B5 (TRIM3 RING domain),0
KIKDLNEHIVCCLCAGYFVDATTITECLHTFCKSCIVKYLQTSKYCPMCNIKIHETQPLL (PCGF1 RING domain (UniProt Q9BSM1)),0
LKQVSIRENCCSLCCDEVADTQLKPCGHSDLCMDCALQLETCPLCRKEIVSRIRQI (RSPRY1 RING domain (UniProt Q96DX4)),0
B6 (RNF14 RING domain),0
B7 (MSL2 RING domain),0
MANWVFCNRCFQPPHRTSCFSLTNCGHVYCDACLGKGKKNECLICKAPCRTVLLSK (RNF212 RING domain (UniProt Q495C1)),0
B8 (RNF150 RING domain),5760
B9 (RNF149 RING domain),0
B10 (PEX2 RING domain),0
B11 (TRIM52 RING domain),0
B12 (RNF43 RING domain),0

# Sample 4 — target: CCND2, cyclin fold, Cln2 fusion (human); technique: yeast growth competition, sequencing; matrix: yeast; setting: weak parent motif; relative to: not given; direction: higher = stronger binding
# Starting sequence: PKN2 docking peptide (human); VSAVQKLDFSDTM; partner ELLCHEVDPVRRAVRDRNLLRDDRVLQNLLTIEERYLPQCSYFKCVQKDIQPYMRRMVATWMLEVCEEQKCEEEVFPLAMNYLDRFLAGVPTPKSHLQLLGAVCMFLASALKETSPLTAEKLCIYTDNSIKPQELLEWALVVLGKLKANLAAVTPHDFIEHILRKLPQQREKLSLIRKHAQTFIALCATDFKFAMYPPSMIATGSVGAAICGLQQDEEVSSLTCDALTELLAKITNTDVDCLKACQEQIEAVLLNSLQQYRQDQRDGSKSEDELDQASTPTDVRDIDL
Substitution,normalised enrichment score
V1M,0.43
M13W,0.674
V1D,-0.0848
D11Q,0.208
S2Y,0.802
A3K,0.173
M13I,0.84
D8I,0.43
V1K,0.604
D11H,0.427
D11P,0.665
K6F,0.0987
L7D,-0.135
K6G,0.15
K6W,0.379
S2R,0.914
F9P,-0.278
T12P,0.899
T12R,0.571
S2W,0.238
S2I,0.372
V4A,0.357
V1Y,1.03
D11F,0.282
V1C,0.93

# For quick reference, copied from above (sample 1):
Strand,log fluorescence [z-score]
GACGGCTTCGACTTTCGGGACGTGCTA,0.0546
GACGGTTTCGGGTATGGGGACGTGCTA,6.34
ACAAGTTTTTATTTTCTGAAGTGCTAG,1.32
GACGATATCAGTACCGAGACGTGCTAG,0.0777
